Assay results from different studies.
A part holds a random share of what one study measured.
UniProt P61075, sequence (whole entry, looked up): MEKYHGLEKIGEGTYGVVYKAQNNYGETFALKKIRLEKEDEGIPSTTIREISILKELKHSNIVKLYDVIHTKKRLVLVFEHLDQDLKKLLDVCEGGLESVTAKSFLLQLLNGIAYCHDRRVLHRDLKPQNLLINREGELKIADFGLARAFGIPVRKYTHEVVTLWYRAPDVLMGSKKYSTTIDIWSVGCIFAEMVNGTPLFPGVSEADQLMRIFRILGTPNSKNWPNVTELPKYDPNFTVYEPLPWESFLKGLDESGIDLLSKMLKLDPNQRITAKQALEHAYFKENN

Sample 1 — Compound: C=CCc1ccc(O)c(-c2ccc(O)c(CC=C)c2)c1
ANO1 del476-501/F628A: Anoctamin-1 (ANO1, Homo sapiens, UniProt Q5XXA6, del476-501/F628A)
UniProt Q5XXA6, sequence (whole entry, unmodified, looked up): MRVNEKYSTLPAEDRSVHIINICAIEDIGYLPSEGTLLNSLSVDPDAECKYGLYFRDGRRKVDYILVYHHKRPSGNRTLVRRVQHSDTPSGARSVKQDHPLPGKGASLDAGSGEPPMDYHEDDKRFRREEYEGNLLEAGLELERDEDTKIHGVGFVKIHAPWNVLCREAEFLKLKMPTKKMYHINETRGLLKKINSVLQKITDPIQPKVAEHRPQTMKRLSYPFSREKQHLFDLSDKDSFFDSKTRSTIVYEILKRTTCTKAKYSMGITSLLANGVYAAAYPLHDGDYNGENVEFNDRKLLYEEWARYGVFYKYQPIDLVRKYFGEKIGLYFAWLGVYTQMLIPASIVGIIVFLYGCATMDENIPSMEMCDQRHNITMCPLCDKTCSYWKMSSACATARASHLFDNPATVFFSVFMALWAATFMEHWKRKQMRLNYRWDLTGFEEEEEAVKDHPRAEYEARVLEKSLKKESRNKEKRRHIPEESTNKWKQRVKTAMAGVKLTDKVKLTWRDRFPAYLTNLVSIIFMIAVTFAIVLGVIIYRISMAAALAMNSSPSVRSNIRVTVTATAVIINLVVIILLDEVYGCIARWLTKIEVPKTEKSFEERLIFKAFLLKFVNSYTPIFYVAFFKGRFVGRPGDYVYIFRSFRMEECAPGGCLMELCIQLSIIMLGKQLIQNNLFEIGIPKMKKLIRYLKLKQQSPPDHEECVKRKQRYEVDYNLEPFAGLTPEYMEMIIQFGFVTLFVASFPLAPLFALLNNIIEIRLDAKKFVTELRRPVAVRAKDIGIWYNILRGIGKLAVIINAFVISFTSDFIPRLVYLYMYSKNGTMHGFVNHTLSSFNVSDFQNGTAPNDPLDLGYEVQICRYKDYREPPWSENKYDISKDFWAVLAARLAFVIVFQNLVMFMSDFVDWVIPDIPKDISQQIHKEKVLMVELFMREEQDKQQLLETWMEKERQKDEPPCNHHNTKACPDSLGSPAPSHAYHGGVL
For Anoctamin-1 (ANO1, Homo sapiens, UniProt Q5XXA6, del476-501/E649A); ion current, inside-out patch clamp; 10 µM, E623A mutant at 60 mV: normalized current read 0.464.
The normalized current was 0.93 (ANO1 del476-501/F628A; chloride current, inhibitor, whole-cell voltage clamp; 3 µM, F602A mutant).
The normalized current was 1 (Anoctamin-1 (ANO1, Homo sapiens, UniProt Q5XXA6, del476-501/F807A); chloride current, inhibitor, whole-cell voltage clamp; 3 µM; reference: untreated).
Anoctamin-1 (ANO1, Homo sapiens, UniProt Q5XXA6, del476-501/E659A/K629A); chloride current, inside-out patch clamp; 10 µM, membrane voltage 120 mV — normalized current: 1.
The normalized current was -0.38 (Anoctamin-1 (ANO1, Homo sapiens, UniProt Q5XXA6, del476-501/R541A); chloride current, inside-out patch clamp; 10 µM, membrane voltage -60 mV).
For Anoctamin-1 (ANO1, Homo sapiens, UniProt Q5XXA6, del476-501); chloride current, whole-cell voltage clamp; 10 µM, wild type, I-V at -20 mV, with: 4 µM Ca2+: normalized current read -0.0561.
ANO1 del476-501/F628A; chloride current, whole-cell voltage clamp; 30 µM, I-V at -20 mV, with: 4 µM Ca2+ — normalized current: -0.0801.
For ANO1 del476-501/F628A; chloride current, whole-cell voltage clamp; 1 µM, I-V at 0 mV, with: 4 µM Ca2+: normalized current read -0.0053.

Sample 2 — host: human; medium: microsomes or S9; concentration: 2 µM; time: 0.5 h
The remaining compound of `CCc1noc(C2(NC(=O)C3CCCC3)CCCCC2)n1` is reported as greater than 100%.
With `Cc1cc(NC(=O)C(C)c2ccc(Cl)s2)nc(=O)[nH]1` (stereo not shown) the remaining compound was greater than 100%.
The remaining compound of `CN(Cc1cnn(-c2ccccc2)c1)c1ccc(C#N)cn1` is reported as 0.2%.
With `CC1(C)Oc2ccc(C#N)cc2[C@@H](NC(=O)c2ccc(F)cc2)[C@@H]1O` the remaining compound was 98.7%.
`CC1C(S(C)(=O)=O)=NNc2c(-c3ccccc3)cnn21` (stereo not shown) gave a remaining compound of 92.8%.
The remaining compound of `COc1ccc(/C=C2\OC(=O)C=C2c2ccc(O)cc2)cc1` is reported as 69%.
For `Cc1cc2oc(-c3ccsc3)c(CC(=O)O)c2c(=O)[nH]1`, the remaining compound was 95.7%.
For `CCOc1ccc(/N=C2\Nc3cccc4cccc2c34)cc1`, the remaining compound was 0.548%.

Sample 3 — method: Phase 2a trial; host: idiopathic pulmonary fibrosis patients
SMILES: CC(C)n1cnc(-c2ccc(F)cc2)c1-c1ncc(C(=O)Nc2ccc(N3CCN(C)CC3)cc2)[nH]1
The “patients with adverse events” was 0% (measured: muscular weakness; dose not given, grade 5 maximum intensity, all arms).
The “patients with adverse events” was 0% (measured: muscular weakness; 30 mg once daily, grade 5 maximum intensity).
It gave 0% for “patients with adverse events” (measured: infections and infestations; dose not given, grade 4 maximum intensity, all arms).
measured: infections and infestations; 30 mg once daily, grade 5 maximum intensity — “patients with adverse events”: 0%.
For measured: urinary tract infection; 30 mg once daily, grade 4 maximum intensity: “patients with adverse events” read 0%.
For measured: gamma-glutamyltransferase increased; dose not given, grade 4 maximum intensity, all arms: “patients with adverse events” read 0%.
The “patients with adverse events” was 0% (measured: vision blurred; 30 mg once daily, grade 3 maximum intensity).
The “patients with adverse events” was 0% (measured: bile acids increased; 60 mg once daily, grade 4 maximum intensity).

Single results of other studies
With `CS(=O)(=O)N1CCCC(NC(=O)[C@H](CCC2CCCCC2)NC(=O)c2ccc(CNC(=O)c3cnc4ccccn34)cc2)C1` (stereo partly shown) the remaining binding was 100% (Cyclin-dependent kinase 2 homolog (CRK2, Plasmodium falciparum, UniProt P61075); cell-free assay, competition with immobilised ligand; 0.1 µM).
